Measured values pooled from the literature.
Protocols differ between the studies behind these lines. ± marks the error that the study gave.
Method: steady-state kinetics
B1: TenA_E (Arabidopsis thaliana, UniProt Q9ASY9); chain MEKRGVIDTWIDKHRSIYTAATRHAFVVSIRDGSVDLSSFRTWLGQDYLFVRRFVPFVASVLIRACKDSGESSDMEVVLGGIASLNDEIEWFKREGSKWDVDFSTVVPQRANQEYGRFLEDLMSSEVKYPVIMTAFWAIEAVYQESFAHCLEDGNKTPVELTGACHRWGNDGFKQYCSSVKNIAERCLENASGEVLGEAEDVLVRVLELEVAFWEMSRGGQ
B2: ycjS (Escherichia coli, UniProt P77503); chain MKSAMTSSPLRVAIIGAGQVADKVHASYYCTRNDLELVAVCDSRLSQAQALAEKYGNASVWDDPQAMLLAVKPDVVSVCSPNRFHYEHTLMALEAGCHVMCEKPPAMTPEQAREMCDTARKLGKVLAYDFHHRFALDTQQLREQVTNGVLGEIYVTTARALRRCGVPGWGVFTNKELQGGGPLIDIGIHMLDAAMYVLGFPAVKSVNAHSFQKIGTQKSCGQFGEWDPATYSVEDSLFGTIEFHNGGILWLETSFALNIREQSIMNVSFCGDKAGATLFPAHIYTDNNGELMTLMQREIADDNRHLRSMEAFINHVQGKPVMIADAEQGYIIQQLVAALYQSAETGTRVEL
B3: phyA (Aspergillus niger, UniProt P34752); chain ASRNQSSCDTVDQGYQCFSETSHLWGQYAPFFSLANESVISPEVPAGCRVTFAQVLSRHGARYPTDSKGKKYSALIEEIQQNATTFDGKYAFLKTYNYSLGADDLTPFGEQELVNSGIKFYQRYESLTRNIVPFIRSSGSSRVIASGKKFIEGFQSTKLKDPRAQPGQSSPKIDVVISEASSSNNTLDPGTCTVFEDSELADTVEANFTATFVPSIRQRLENDLSGVTLTDTEVTYLMDMCSFDTISTSTVDTKLSPFCDLFTHDEWINYDYLQSLKKYYGHGAGNPLGPTQGVGYANELIARLTHSPVHDDTSSNHTLDSSPATFPLNSTLYADFSHDNGIISILFALGLYNGTKPLSTTTVENITQTDGFSSAWTVPFASRLYVEMMQCQAEQEPLVRVLVNDRVVPLHGCPVDALGRCTRDSFVRGLSFARSGGDWAECFA
B4: protein Y93N (Thermus thermophilus, UniProt Q5SKR5); chain MSAPKPFVIGIAGGTASGKTTLAQALARTLGERVALLPMDHYYKDLGHLPLEERLRVNYDHPDAFDLALYLEHAQALLRGLPVEMPVYDFRANTRSPRRTPVRPAPVVILEGILVLYPKELRDLMDLKVFVDADADERFIRRLKRDVLERGRSLEGVVAQYLEQVKPMHLHFVEPTKRYADVIVPRGGQNPVALEMLAAKALARLARMGAA
B5: PPIP5K2 (Homo sapiens, UniProt O43314); chain MSEAPRFFVGPEDTEINPGNYRHFFHHADEDDEEEDDSPPERQIVVGICSMAKKSKSKPMKEILERISLFKYITVVVFEEEVILNEPVENWPLCDCLISFHSKGFPLDKAVAYAKLRNPFVINDLNMQYLIQDRREVYSILQAEGILLPRYAILNRDPNNPKECNLIEGEDHVEVNGEVFQKPFVEKPVSAEDHNVYIYYPTSAGGGSQRLFRKIGSRSSVYSPESNVRKTGSYIYEEFMPTDGTDVKVYTVGPDYAHAEARKSPALDGKVERDSEGKEVRYPVILNAREKLIAWKVCLAFKQTVCGFDLLRANGQSYVCDVNGFSFVKNSMKYYDDCAKILGNIVMRELAPQFHIPWSIPLEAED
B6: Tcur_2987 W263F (Thermomonospora curvata, UniProt D1A807); chain ACSEERAAGARPSATQTTGTATEPFHGPHQAGIATPPQAHAVFLGLDLRKGTGRKELGRLMRLLTDDARRLTQGRPALADPEPDLAPLPSRLTFTFGFGPGLFKAAGLEKQRPEGLRPLPPFKVDRLEDRWSGGDLLVQICCDDPITLAHALRMTVKDARAFTRVRWVQRGFRRSPGVQSSGATQRNLMGQLDGTVNPVPGTADFDQAVWVQDGPEWLRGGTTLVLRRIRMELEKFDEADPAGKEFAVGRRLTSGAPLTGRHEHDEPDFDAVDSAGFPVIAENAHIRLAHVDSPRLRMLRRPYNYDEGLTADGRSDAGLLFAAYQADIDRQFIPVQRRLDEGGDLLNLWTTPIGSAVFAIPPGCDENGWIGQGLLG
B7: cyc1 L72V (Streptomyces coelicolor, UniProt Q9K499); chain MHAFPHGTTATPTAIAVPPSLRLPVIEAAFPRQLHPYWPKLQETTRTWLLEKRLMPADKVEEYADGLCYTDVMAGYYLGAPDEVLQAIADYSAWFFVWDDRHDRDIVHGRAGAWRRLRGLLHTALDSPGDHLHHEDTLVAGFADSVRRLYAFLPATWNARFARHFHTVIEAYDREFHNRTRGIVPGVEEYLELRRLTFAHWIWTDLLEPSSGCELPDAVRKHPAYRRAALLSQEFAAWYNDLCSLPKEIAGDEVHNLGISLITHHSLTLEEAIGEVRRRVEECITEFLAVERDALRFADELADGTVRGKELSGAVRANVGNMRNWFSSVYWFHHESGRYMVDSWDDRSTPPYVNNEAAGEK
Sequence of UniProt P14780 (whole entry, looked up): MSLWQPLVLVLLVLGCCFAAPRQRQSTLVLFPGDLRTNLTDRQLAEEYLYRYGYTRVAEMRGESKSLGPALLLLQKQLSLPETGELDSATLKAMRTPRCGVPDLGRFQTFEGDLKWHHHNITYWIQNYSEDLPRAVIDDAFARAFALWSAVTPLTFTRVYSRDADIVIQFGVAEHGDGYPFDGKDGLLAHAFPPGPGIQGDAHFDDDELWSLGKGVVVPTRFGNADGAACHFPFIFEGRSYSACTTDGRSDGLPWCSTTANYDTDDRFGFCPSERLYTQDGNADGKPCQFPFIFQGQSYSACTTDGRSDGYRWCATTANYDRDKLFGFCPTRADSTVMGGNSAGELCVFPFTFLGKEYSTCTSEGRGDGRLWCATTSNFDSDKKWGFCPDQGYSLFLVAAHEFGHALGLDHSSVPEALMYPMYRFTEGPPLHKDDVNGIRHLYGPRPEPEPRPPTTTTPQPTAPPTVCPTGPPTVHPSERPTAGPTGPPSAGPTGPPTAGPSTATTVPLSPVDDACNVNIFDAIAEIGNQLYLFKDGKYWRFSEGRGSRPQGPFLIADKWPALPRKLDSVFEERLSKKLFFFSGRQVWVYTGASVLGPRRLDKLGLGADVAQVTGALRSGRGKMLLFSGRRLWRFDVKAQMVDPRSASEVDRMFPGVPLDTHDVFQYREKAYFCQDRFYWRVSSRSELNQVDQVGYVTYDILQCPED
Sequence of UniProt P38999 (whole entry, looked up): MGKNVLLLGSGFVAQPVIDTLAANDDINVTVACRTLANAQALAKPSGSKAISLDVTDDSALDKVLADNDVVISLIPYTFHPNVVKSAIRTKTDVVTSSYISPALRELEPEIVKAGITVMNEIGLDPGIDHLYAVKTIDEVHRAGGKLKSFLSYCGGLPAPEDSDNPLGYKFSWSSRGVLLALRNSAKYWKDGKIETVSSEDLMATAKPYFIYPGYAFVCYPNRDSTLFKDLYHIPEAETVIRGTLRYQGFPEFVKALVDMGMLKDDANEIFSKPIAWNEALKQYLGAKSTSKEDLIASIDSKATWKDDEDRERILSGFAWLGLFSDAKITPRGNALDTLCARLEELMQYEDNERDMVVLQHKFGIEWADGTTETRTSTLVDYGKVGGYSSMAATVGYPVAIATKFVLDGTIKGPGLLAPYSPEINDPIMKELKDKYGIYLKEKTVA
Sequence of UniProt E1V931 (whole entry, looked up): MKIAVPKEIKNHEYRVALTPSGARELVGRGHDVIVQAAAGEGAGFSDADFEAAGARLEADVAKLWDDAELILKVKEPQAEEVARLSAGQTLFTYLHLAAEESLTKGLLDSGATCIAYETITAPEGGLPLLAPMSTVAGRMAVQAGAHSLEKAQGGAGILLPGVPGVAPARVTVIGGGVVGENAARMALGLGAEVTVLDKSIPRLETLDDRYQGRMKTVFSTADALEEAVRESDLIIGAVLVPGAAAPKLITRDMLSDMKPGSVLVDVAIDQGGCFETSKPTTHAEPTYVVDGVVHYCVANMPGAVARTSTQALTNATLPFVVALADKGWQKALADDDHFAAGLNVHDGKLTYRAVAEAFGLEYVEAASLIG
Sequence of UniProt A6T923 (whole entry, looked up): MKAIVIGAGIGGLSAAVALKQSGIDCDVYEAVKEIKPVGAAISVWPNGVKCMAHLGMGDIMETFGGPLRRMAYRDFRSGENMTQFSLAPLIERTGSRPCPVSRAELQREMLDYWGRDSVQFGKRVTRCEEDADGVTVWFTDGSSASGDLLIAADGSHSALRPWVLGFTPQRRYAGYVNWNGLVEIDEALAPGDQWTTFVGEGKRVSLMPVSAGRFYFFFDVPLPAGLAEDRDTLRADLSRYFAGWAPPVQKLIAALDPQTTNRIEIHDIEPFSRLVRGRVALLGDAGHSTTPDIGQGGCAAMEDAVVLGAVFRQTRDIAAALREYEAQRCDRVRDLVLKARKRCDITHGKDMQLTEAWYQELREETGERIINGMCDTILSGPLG

Substance = Saccharopine reductase (Saccharomyces cerevisiae, UniProt P38999); substrate = N[C@@H](CCC(=O)O)C(=O)O; pH = pH 7; temperature = 25 °C; together with = NADPH, AASA; kcat = 1.9 ± 0.1 s⁻¹
Substance = hpxO (Klebsiella pneumoniae, UniProt A6T923); substrate = NC(=O)C1=CN([C@@H]2O[C@H](COP(=O)(O)OP(=O)(O)OC[C@H]3O[C@@H](n4cnc5c(N)ncnc54)[C@H](O)[C@@H]3O)[C@@H](O)[C@H]2O)C=CC1; pH = pH 8; temperature = 25 °C; kcat = 42 ± 2 s⁻¹
Substance = enzyme (Halomonas elongata, UniProt E1V931); substrate = NC(=O)c1ccc[n+]([C@@H]2O[C@H](COP(=O)(O)OP(=O)(O)OC[C@H]3O[C@@H](n4cnc5c(N)ncnc54)[C@H](O)[C@@H]3O)[C@@H](O)[C@H]2O)c1; pH = pH 10; temperature = 25 °C; setting = cofactor varied; kcat = 1.7 s⁻¹
Substance = B1 (TenA_E); substrate = Cc1ncc(CNC=O)c(N)n1; pH = pH 7.5; temperature = 30 °C; setting = formylamino-HMP amidohydrolase activity; together with = 450 mM glycine betaine; kcat = 0.00281 ± 0.00023 s⁻¹
Substance = B2 (ycjS); substrate = CO[C@@H]1O[C@H](CO)[C@@H](O)C(=O)[C@H]1O; pH = pH 7; temperature = 30 °C; together with = NADH 0.3 mM; kcat = 19 ± 1 s⁻¹
Substance = MMP9 (Homo sapiens, UniProt P14780); substrate = CSCC[C@H](NC(=O)CNC(=O)[C@H](CC(C)C)NC(=O)[C@@H]1CCCN1C(=O)CNC(C)=O)C(=O)N[C@@H](Cc1c[nH]cn1)C(=O)NCC(=O)N[C@@H](CCCCN)C(N)=O; kcat = 168 s⁻¹
Substance = B3 (phyA); substrate = O=P(O)(O)O[C@@H]1[C@@H](OP(=O)(O)O)[C@H](OP(=O)(O)O)[C@@H](O)[C@@H](OP(=O)(O)O)[C@H]1OP(=O)(O)O; pH = pH 5; temperature = 37 °C; kcat = 136 ± 7 s⁻¹
Substance = B4 (protein Y93N); substrate = Nc1ccn([C@@H]2O[C@H](CO)[C@@H](O)[C@H]2O)c(=O)n1; pH = pH 7.2; temperature = 25 °C; setting = KCl 100 mM; together with = ATP 100–200 µM; kcat = 4.1 ± 0.8 s⁻¹
Substance = B5 (PPIP5K2); substrate = Nc1ncnc2c1ncn2[C@@H]1O[C@H](COP(=O)(O)OP(=O)(O)OP(=O)(O)O)[C@@H](O)[C@H]1O; kcat = 0.13 ± 0.01 s⁻¹
Substance = B6 (Tcur_2987 W263F); substrate = Nc1c(S(=O)(=O)O)cc(Nc2cccc(S(=O)(=O)CCOS(=O)(=O)O)c2)c2c1C(=O)c1ccccc1C2=O; pH = pH 3; setting = sigmoidal kinetics; together with = H2O2 1 mM; kcat = 49 ± 1 s⁻¹
Substance = B7 (cyc1 L72V); substrate = CC(C)=CCC/C(C)=C/CC/C(C)=C/CO[P@@](=O)(O)OP(=O)(O)O; pH = pH 6.5; temperature = 30 °C; together with = MgCl2 10 mM; kcat = 0.044 ± 0.003 s⁻¹
Substance = protein (Actinidia chinensis, UniProt H9M5U5); substrate = CC(C)=CCC/C(C)=C/COP(=O)(O)OP(=O)(O)O; pH = pH 7.5; temperature = room temperature; setting = labelled compound; together with = MgCl2 20 mM; kcat = 0.13 ± 0.002 s⁻¹
Substance = pgmB T16P (Lactococcus lactis) (sequence not shown); substrate = O=P(O)(O)OC[C@H]1O[C@@H](OP(=O)(O)O)[C@H](O)[C@@H](O)[C@@H]1O; pH = pH 7; temperature = 25 °C; kcat = 0.38 ± 0.01 s⁻¹
